Values quoted from earlier work that unrelated publications cite.
Lines come from different studies, so protocols differ.
B1: CX3CL1, human; sequence looked up; chain QHHGVTKCNITCSKMTSKIPVALLIHYQQNQASCGKRAIILETRQHRLFCADPKEQWVKDAMQHLDRQAAALTRNGGTFEKQIGEVKPRTTPAAGGMDESVVLEPEATGESSSLEPTPSSQEAQRALGTSPELPTGVTGSSGTRLPPTPKAQDGGPVGTELFRVPPVSTAATWQSSAPHQPGPSLWAEAKTSEAPSTQDPSTQASTASSPAPEENAPSEGQRVWGQGQSPRPENSLEREEMGPVPAHTDAFQDWGPGSMAHVSVVPVSSEGTPSREPVASGSWTPKAEEPIHATMDPQRLGVLITPVPDAQAATRRQAVGLLAFLGLLFCLGVAMFTYQSLQGCPRKMAGEMAEGLRYIPRSCGSNSYVLVPV
Sequence of UniProt Q63273 (whole entry, looked up): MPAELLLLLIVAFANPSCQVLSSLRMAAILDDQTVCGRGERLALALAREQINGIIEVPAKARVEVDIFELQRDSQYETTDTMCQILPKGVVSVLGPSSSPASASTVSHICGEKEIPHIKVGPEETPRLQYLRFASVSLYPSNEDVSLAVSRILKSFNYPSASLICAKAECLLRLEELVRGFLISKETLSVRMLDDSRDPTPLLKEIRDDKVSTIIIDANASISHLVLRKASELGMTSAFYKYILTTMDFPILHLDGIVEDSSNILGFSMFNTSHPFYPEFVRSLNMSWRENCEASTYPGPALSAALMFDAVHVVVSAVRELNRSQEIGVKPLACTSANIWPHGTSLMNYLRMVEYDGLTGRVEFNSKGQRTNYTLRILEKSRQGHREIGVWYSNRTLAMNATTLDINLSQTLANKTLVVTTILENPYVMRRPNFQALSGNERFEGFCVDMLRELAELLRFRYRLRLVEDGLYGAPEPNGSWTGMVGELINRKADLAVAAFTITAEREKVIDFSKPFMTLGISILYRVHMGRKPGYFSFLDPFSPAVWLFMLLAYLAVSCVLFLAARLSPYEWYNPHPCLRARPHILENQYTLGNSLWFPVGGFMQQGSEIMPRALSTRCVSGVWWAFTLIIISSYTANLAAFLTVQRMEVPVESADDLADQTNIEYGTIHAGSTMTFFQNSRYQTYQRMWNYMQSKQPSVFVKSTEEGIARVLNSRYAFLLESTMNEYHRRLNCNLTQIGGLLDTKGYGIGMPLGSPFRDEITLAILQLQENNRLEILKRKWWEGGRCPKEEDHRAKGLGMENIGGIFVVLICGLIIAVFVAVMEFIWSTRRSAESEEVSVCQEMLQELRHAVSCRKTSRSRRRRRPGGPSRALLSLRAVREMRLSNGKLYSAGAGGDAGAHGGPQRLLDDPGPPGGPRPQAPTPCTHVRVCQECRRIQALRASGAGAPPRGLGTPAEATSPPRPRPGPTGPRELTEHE

| Substance | target or system | assay | system | conditions | measurement | result |
| --- | --- | --- | --- | --- | --- | --- |
| N[C@@H](C[C@]1(C(=O)O)C[C@H]2OC[C@@H](O)[C@@H](O)[C@H]2O1)C(=O)O | Grik5 (Rattus norvegicus, UniProt Q63273) | radioligand binding | – | – | Ki | 0.68 µM |
| O=C(NN1C(=O)C2C3C=CC(C4CC34)C2C1=O)c1ccc(C(F)(F)F)cc1 (stereo not shown) | Monkeypox virus | viral replication | clade I and IIa isolates | – | EC50 | 0.023 to 0.039 µM |
| COP(=O)(OC)SCn1c(=O)oc2cc(Cl)cnc21 | acetylcholinesterase | enzyme activity, inhibitor | thymus tissue | 20 min | IC30 | 0.12 µM |
| B1 (CX3CL1, human) | US28 Y16F | binding, radioligand competition | – | – | Kd | 0.0012 µM |

Repeated from above:
| Substance | target or system | assay | system | conditions | measurement | result |
| --- | --- | --- | --- | --- | --- | --- |
| B1 (CX3CL1, human) | US28 Y16F | binding, radioligand competition | – | – | Kd | 0.0012 µM |
